# Measured values from different studies.
# Each line is one published result; not all experiments were run side by side. Numbers after ± are the reported error.
# Caspase-2: Caspase-2 (Homo sapiens, UniProt P42575)
# Chain of UniProt P42575 (whole entry, looked up): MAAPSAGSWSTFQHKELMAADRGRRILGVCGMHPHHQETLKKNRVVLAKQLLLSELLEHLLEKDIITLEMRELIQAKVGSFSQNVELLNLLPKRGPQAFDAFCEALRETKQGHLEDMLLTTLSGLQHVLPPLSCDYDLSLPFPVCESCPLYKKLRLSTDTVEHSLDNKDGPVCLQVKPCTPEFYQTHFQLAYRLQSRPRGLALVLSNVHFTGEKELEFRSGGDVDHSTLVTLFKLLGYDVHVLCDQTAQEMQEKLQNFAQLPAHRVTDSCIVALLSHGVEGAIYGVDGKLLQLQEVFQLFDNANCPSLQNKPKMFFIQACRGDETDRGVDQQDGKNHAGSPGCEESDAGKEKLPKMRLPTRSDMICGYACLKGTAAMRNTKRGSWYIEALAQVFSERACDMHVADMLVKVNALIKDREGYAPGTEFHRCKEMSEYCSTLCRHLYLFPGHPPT
# Chain of UniProt P24463 (whole entry, looked up): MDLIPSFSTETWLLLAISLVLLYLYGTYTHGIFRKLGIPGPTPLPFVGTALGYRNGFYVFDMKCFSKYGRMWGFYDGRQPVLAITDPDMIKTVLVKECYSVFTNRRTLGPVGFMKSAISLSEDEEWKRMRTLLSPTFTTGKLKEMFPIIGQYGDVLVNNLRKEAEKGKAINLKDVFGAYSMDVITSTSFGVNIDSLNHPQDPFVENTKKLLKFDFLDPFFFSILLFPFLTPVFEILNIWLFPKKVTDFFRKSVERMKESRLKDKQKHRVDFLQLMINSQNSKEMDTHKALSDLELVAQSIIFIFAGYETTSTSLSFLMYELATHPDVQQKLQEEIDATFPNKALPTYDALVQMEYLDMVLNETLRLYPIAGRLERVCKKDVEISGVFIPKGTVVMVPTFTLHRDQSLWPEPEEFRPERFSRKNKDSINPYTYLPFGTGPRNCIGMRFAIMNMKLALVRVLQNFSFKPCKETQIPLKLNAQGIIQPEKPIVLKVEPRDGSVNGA
# Chain of UniProt P21397 (whole entry, looked up): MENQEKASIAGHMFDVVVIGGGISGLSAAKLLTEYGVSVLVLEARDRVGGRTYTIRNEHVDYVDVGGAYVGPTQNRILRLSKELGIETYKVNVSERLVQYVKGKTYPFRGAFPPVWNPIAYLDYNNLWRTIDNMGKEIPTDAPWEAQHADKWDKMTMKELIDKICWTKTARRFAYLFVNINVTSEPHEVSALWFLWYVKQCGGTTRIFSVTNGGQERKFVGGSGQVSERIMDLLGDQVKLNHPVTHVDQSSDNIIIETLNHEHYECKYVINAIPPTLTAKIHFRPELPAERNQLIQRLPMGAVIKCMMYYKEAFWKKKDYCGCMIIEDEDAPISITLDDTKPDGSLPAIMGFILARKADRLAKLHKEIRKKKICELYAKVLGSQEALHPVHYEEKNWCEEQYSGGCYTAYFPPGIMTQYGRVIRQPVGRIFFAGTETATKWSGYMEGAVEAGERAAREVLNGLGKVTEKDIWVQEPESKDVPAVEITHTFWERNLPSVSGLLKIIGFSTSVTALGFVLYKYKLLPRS
Structure (SMILES),tested on,test,test system,conditions,how to read,endpoint,result
CN(C)C(=O)C1CN1S(=O)(=O)c1ccc2cc(N(C)C)ccc2c1 (stereo not shown),Balb/c 3T3 fibroblasts,"cytotoxicity, neutral red uptake",DMEM with 5% FBS,24 h,,IC50,12 ± 0.4 µM
COc1ccc(-n2cc(C(=O)OC3CCC4(C)C(C(O)CC5(C)C4CC(O)C4C(C6(C)CCCC(C)(C)O6)CCC45C)C3(C)C)nn2)cc1 (stereo not shown),Hep3B,"cell growth or viability, MTT",,24 h,,IC50,> 30 µM
COc1ccc(CCCN[C@@H]2CCC[C@H]2CN[C@@H]2CCC[C@H]2CNCCCCN[C@@H]2CCC[C@H]2CN)cc1,"MAOA (Homo sapiens, UniProt P21397)","enzyme activity, inhibitor",,,,Ki,380 µM
COc1cc(CNC(=O)C[C@H](C)CCC=C(C)C)ccc1OCc1cn(-c2ccc(Cl)c(Cl)c2)nn1,ACHN,SRB,,"10 µM, 48 h",,growth percent,71.5%
C=C1C(=O)OC2C=C(C)CCC=C(C(=O)OC(C)C(C)(O)C(=O)OC3C(OC(C)=O)C(C(=O)OC)=CCCC(C)=CC4OC(=O)C(=C)C43)CC(OC(=O)C(C)=CC)C12 (stereo not shown),NIH/3T3,"cytotoxicity, WST-8",,"48 h, 10% FBS",,IC50,1.66 µM
O=C(Nc1ccc2c(c1)CN(c1ccc(F)c(F)c1)C2=O)N1CCN(c2ccc(Cl)cc2)CC1,MRC-5 SV2,cytotoxicity,,,,IC50,> 64 µM
CC(C)(C)OC(=O)NCC(=O)OC1CC2(C)C(CC(O)C3C(C4(C)CCCC(C)(C)O4)CCC32C)C2(C)CCC(O)C(C)(C)C12 (stereo not shown),Hep3B,"cell growth or viability, MTT",,24 h,,IC50,> 30 µM
CCCCc1ccc(S(=O)(=O)N2CC2C(=O)N(C)C)cc1 (stereo not shown),Balb/c 3T3 fibroblasts,"cytotoxicity, neutral red uptake",DMEM with 5% FBS,24 h,,IC50,13 ± 1 µM
CC[C@H]1[C@@H](O)[C@@H]2[C@H](CC[C@]3(C)[C@@H]([C@H](C)CCOS(=O)(=O)[O-])CC[C@@H]23)[C@@]2(C)CC[C@@H](O)C[C@@H]12.[Na+],,digital image analysis,"ob/ob NASH mouse model, liver","oral, 3 mg/kg once daily, 8 weeks",reference: area,steatosis area,40.6 ± 1.6%
O=C(Nc1ccc2c(c1)CN(c1ccccc1)C2=O)N1CCN(c2ccc(F)cc2)CC1,MRC-5 SV2,cytotoxicity,,,,IC50,> 64 µM
O=C(NCCc1cccc(F)c1)[C@@H]1C[C@@H](Sc2nc3ccccc3[nH]2)CN1Cc1cccc(Cl)c1,MGC-803,"cell growth or viability, CCK-8",,24 h,,IC50,33.6 µM
COC(=O)C1CN1S(=O)(=O)c1cccc2cc(N(C)C)ccc12 (stereo not shown),Balb/c 3T3 fibroblasts,"cytotoxicity, neutral red uptake",DMEM with 5% FBS,24 h,,IC50,44 ± 5 µM
N=C(N)NCCC[C@@H]1NC(=O)[C@H](CCCCNC(=O)CC[C@H](NC(=O)CC[C@H](NC(=O)CN2CCN(CC(=O)O)CCN(CC(=O)O)CCN(CC(=O)O)CC2)C(=O)N[C@@H](CCC(=O)NCCCC[C@@H]2NC(=O)[C@@H](Cc3ccccc3)NC(=O)[C@H](CC(=O)O)NC(=O)CNC(=O)[C@H](CCCNC(=N)N)NC2=O)C(=O)NCCCC[C@@H]2NC(=O)[C@@H](Cc3ccccc3)NC(=O)[C@H](CC(=O)O)NC(=O)CNC(=O)[C@H](CCCNC(=N)N)NC2=O)C(=O)NCCCC[C@@H]2NC(=O)[C@@H](Cc3ccccc3)NC(=O)[C@H](CC(=O)O)NC(=O)CNC(=O)[C@H](CCCNC(=N)N)NC2=O)NC(=O)[C@@H](Cc2ccccc2)NC(=O)[C@H](CC(=O)O)NC(=O)CNC1=O [indium-111 labelled],,,"female athymic nu/nu mice, liver","intravenous, 24 h",,tissue uptake,2.15 ± 0.57 %ID/g
CC1(C)CCCC(C)(C2CCC3(C)C2C(O)CC2C4(C)CCC(OC(=O)Nc5ccccc5)C(C)(C)C4C(OC(=O)Nc4ccccc4)CC23C)O1 (stereo not shown),Hep3B,"cell growth or viability, MTT",,24 h,,IC50,> 30 µM
N=C(N)NCCC[C@@H]1NC(=O)[C@H](CCCCNC(=O)CNC(=O)CNC(=O)CNC(=O)CC[C@H](NC(=O)CNC(=O)CNC(=O)CNC(=O)CN2CCN(CC(=O)O)CCN(CC(=O)O)CCN(CC(=O)O)CC2)C(=O)NCC(=O)NCC(=O)NCC(=O)NCCCC[C@@H]2NC(=O)[C@@H](Cc3ccccc3)NC(=O)[C@H](CC(=O)O)NC(=O)CNC(=O)[C@H](CCCNC(=N)N)NC2=O)NC(=O)[C@@H](Cc2ccccc2)NC(=O)[C@H](CC(=O)O)NC(=O)CNC1=O [indium-111 labelled],,,"female athymic nu/nu mice, eyes","intravenous, 1 h",,tissue uptake,0.84 ± 0.13 %ID/g
CCCCCCCCc1ccc(S(=O)(=O)N2CC2C(=O)OC)cc1 (stereo not shown),Balb/c 3T3 fibroblasts,"cytotoxicity, neutral red uptake",DMEM with 5% FBS,24 h,,IC50,110 ± 3 µM
O=C(Nc1ccc2c(c1)CN(c1ccccc1)C2=O)N1CC[C@H](F)C1,MRC-5 SV2,cytotoxicity,,,,IC50,> 64 µM
COC(=O)C1CN1S(=O)(=O)c1ccc2c(C=O)c(N(C)C)ccc2c1 (stereo not shown),Balb/c 3T3 fibroblasts,"cytotoxicity, neutral red uptake",DMEM with 5% FBS,24 h,,IC50,11 ± 0.2 µM
C=C1C(=O)O[C@@H]2/C=C(\C)CC/C=C(/C(=O)OC)C[C@@H](OC(=O)/C(C)=C\C)[C@@H]12,NIH/3T3,"cytotoxicity, WST-8",,"48 h, 10% FBS",,IC50,11.1 µM
CC(=O)N[C@H](C(=O)N[C@@H](CCCCN)C(=O)N[C@H](C=O)CC(=O)O)C(C)C,Caspase-2,"enzyme activity, inhibitor, fluorescence",,pH 6.5,,Ki,> 100 µM
O=C(Nc1ccc2c(c1)CN(c1ccc(Cl)cc1)C2=O)N1CCN(c2ccc(F)cc2)CC1,MRC-5 SV2,cytotoxicity,,,,IC50,> 64 µM
C=C1C(=O)O[C@@H]2/C=C(\C)CC/C=C(/C(=O)OC)[C@H](OC(C)=O)[C@@H](OC(=O)/C(C)=C\C)[C@@H]12,NIH/3T3,"cytotoxicity, WST-8",,"48 h, 10% FBS",,IC50,5.24 µM
COC(=O)C1CN1S(=O)(=O)c1ccc(C)c2ccccc12 (stereo not shown),Balb/c 3T3 fibroblasts,"cytotoxicity, neutral red uptake",DMEM with 5% FBS,24 h,,IC50,48 ± 7 µM
COc1cc(CNC(=O)C[C@H](C)CCC=C(C)C)ccc1OCc1cn(-c2cccc(C(F)(F)F)c2)nn1,DU-145,SRB,,"10 µM, 48 h",,growth percent,101%
CC(=O)Nc1ccn(C2OC(COC(C)=O)C3CC=CCC32)c(=O)n1 (mixture of isomers),CEM,cell growth,,6 days,,IC50,> 100 µM
CC(C)(C)OC(=O)NC(Cc1c[nH]c2ccccc12)C(=O)OC1CC2(C)C(CC(O)C3C(C4(C)CCCC(C)(C)O4)CCC32C)C2(C)CCC(OC(=O)C(Cc3c[nH]c4ccccc34)NC(=O)OC(C)(C)C)C(C)(C)C12 (stereo not shown),Hep3B,"cell growth or viability, MTT",,24 h,,IC50,> 30 µM
NS(=O)(=O)Nc1ncnc(OCCOc2ncc(Br)cn2)c1-c1ccc(Br)cc1,"Cytochrome P450 3A12 (Canis lupus familiaris, UniProt P24463)",refers to: compound formation,dog male,,,contribution to clearance,100%
Nc1ccn(C2OC(CO)C3CC=CCC32)c(=O)n1 (mixture of isomers),CEM,cell growth,,6 days,,IC50,> 100 µM
O=C(Nc1ccc2c(c1)CN(c1ccc(Cl)c(Cl)c1)C2=O)N1CCN(c2ccc(Cl)cc2)CC1,MRC-5 SV2,cytotoxicity,,,,IC50,> 64 µM
CC(=O)OCC1OC(n2cc(C)c(=O)[nH]c2=O)C2CC=CCC12 (mixture of isomers),CEM,cell growth,,6 days,,IC50,> 100 µM
COC(=O)C1CN1S(=O)(=O)c1ccc2c(N(C)C)cccc2c1 (stereo not shown),Balb/c 3T3 fibroblasts,"cytotoxicity, neutral red uptake",DMEM with 5% FBS,24 h,,IC50,29 ± 1 µM
CC[C@H](C)[C@H](NC(C)=O)C(=O)N[C@H](C(=O)N[C@H](C(=O)N[C@@H](CCCCNC(C)=O)C(=O)N[C@H](C=O)CC(=O)O)C(C)C)[C@@H](C)O,Caspase-2,"enzyme activity, inhibitor, fluorescence",,pH 6.5,,Ki,0.501 µM
CCCCc1ccc(N2C(=O)/C(=N\NC(=N)N)c3cc(C)ccc32)cc1,BJ,"cell growth or viability, MTT",,24 h,,IC50,6.6 µg/mL
CC1(C)CCCC(C)(C2CCC3(C)C2C(O)CC2C4(C)CCC(OC(=O)/C=C\c5ccccc5)C(C)(C)C4C(O)CC23C)O1 (stereo not shown),Hep3B,"cell growth or viability, MTT",,24 h,,IC50,> 30 µM
[64Cu+2].c1cnc(CNCc2ccc(CN3CCCN4CCNCCCN(CC4)CC3)cc2)nc1,CXCR4,,"NOD/SCID mouse, U87 and U87-stb-CXCR4 xenografts, kidney","iv, 120 min, ex vivo",,tissue uptake,34.7 ± 9.75 %ID/g
O=C(Nc1ccc2c(c1)CN(c1ccc(Br)cc1)C2=O)N1CCN(c2ccc(F)cc2)CC1,MRC-5 SV2,cytotoxicity,,,,IC50,> 64 µM
Nc1nc(Cl)nc2c1ncn2C1OC(CO)C2CC=CCC21 (mixture of isomers),CEM,cell growth,,6 days,,IC50,> 100 µM
N.N.O=C(CCCc1ccccc1)[O][Pt]([Cl])([Cl])[O]C(=O)CCCc1ccccc1,HCT-116 p53-/-,cytotoxicity,,72 h,,IC50,0.34 ± 0.08 µM
C=C1C(=O)OC2C=C(C)CCC=C(C(=O)OC(C)C(C)(O)C(=O)OC3C(OC(C)=O)C(C(=O)OC)=CCCC4(C)OC4C4OC(=O)C(=C)C34)CC(OC(=O)C(C)=CC)C12 (stereo not shown),NIH/3T3,"cytotoxicity, WST-8",,"24 h, 10% FBS",,IC50,4.81 µM
CC1(C)CCCC(C)(C2CCC3(C)C2C(O)CC2C4(C)CCC(OC(=O)c5cn(-c6ccc(Cl)cc6)nn5)C(C)(C)C4C(O)CC23C)O1 (stereo not shown),Hep3B,"cell growth or viability, MTT",,24 h,,IC50,> 30 µM
CN(C)C(=O)C1CN1S(=O)(=O)c1cccc2ccccc12 (stereo not shown),Balb/c 3T3 fibroblasts,"cytotoxicity, neutral red uptake",DMEM with 5% FBS,24 h,,IC50,15 ± 4 µM
CC1(C)CCCC(C)(C2CCC3(C)C2C(O)CC2C4(C)CCC(OC(=O)C=Cc5ccc(Cl)cc5)C(C)(C)C4C(OC(=O)C=Cc4ccc(Cl)cc4)CC23C)O1 (stereo not shown),Hep3B,"cell growth or viability, MTT",,24 h,,IC50,> 30 µM
Cc1cc(=O)c2c(O)c3c(O[C@@H]4O[C@H](CO)[C@@H](O)[C@H](O)[C@H]4O)cc(O)cc3cc2o1,HepaRG in HK-2 co-culture,"cell viability, MTT",,48 h,,IC50,90.4 µM
Clc1ccc2ccc3[n+](c2c1)[Ir-3]12([c]4ccccc4-3)([c]3ccccc3-c3ccc4ccc(Cl)cc4[n+]31)[n+]1ccccc1-c1cccc[n+]12.F[P-](F)(F)(F)(F)F,MDA-MB-231 CDK9 overexpressing,"cytotoxicity, MTT",,,,IC50,0.09 µM
CC1(C)CCCC(C)(C2CCC3(C)C2C(O)CC2C4(C)CCC(O)C(C)(C)C4C(OC(=O)/C=C\c4ccccc4)CC23C)O1 (stereo not shown),Hep3B,"cell growth or viability, MTT",,24 h,,IC50,> 30 µM
COc1cc(/C=C/C(=O)/C=C/c2ccc(O)c(OC)c2)ccc1O,CEM-T,"cell viability, calcein-AM",,24 h,,IC50,2.4 µM

# Some of these lines once more:
Structure (SMILES),tested on,test,test system,conditions,how to read,endpoint,result
CC1(C)CCCC(C)(C2CCC3(C)C2C(O)CC2C4(C)CCC(OC(=O)/C=C\c5ccccc5)C(C)(C)C4C(O)CC23C)O1 (stereo not shown),Hep3B,"cell growth or viability, MTT",,24 h,,IC50,> 30 µM
[64Cu+2].c1cnc(CNCc2ccc(CN3CCCN4CCNCCCN(CC4)CC3)cc2)nc1,CXCR4,,"NOD/SCID mouse, U87 and U87-stb-CXCR4 xenografts, kidney","iv, 120 min, ex vivo",,tissue uptake,34.7 ± 9.75 %ID/g
O=C(Nc1ccc2c(c1)CN(c1ccc(Br)cc1)C2=O)N1CCN(c2ccc(F)cc2)CC1,MRC-5 SV2,cytotoxicity,,,,IC50,> 64 µM
Nc1nc(Cl)nc2c1ncn2C1OC(CO)C2CC=CCC21 (mixture of isomers),CEM,cell growth,,6 days,,IC50,> 100 µM
